Results from different studies.
Parts stem from different laboratories: compare values within a part only. Changes are numbered by the printed parent chain.

Block 1 — target: CCNB3, cyclin fold, Cln2 fusion (human); technique: yeast growth competition, sequencing; matrix: yeast; notes: weak parent motif; baseline: not given; direction: higher = stronger binding
Parent: WEE1 docking peptide (human); HKTFRKLRLFDTP
Substitution | normalised enrichment score
T3P | 0.371
R5E | 0.752
F4Y | 0.018
H1V | -0.812

Block 2 — technique: universal PBM; molecule type: double-stranded DNA, one strand shown; matrix: in vitro; tested at: 600 nM; direction: higher = stronger binding
Target: Sal-like protein 4, full length isoform A (SALL4, Homo sapiens, UniProt Q9UJQ4, residues 1-1053)
Chain of UniProt Q9UJQ4 (whole entry, looked up): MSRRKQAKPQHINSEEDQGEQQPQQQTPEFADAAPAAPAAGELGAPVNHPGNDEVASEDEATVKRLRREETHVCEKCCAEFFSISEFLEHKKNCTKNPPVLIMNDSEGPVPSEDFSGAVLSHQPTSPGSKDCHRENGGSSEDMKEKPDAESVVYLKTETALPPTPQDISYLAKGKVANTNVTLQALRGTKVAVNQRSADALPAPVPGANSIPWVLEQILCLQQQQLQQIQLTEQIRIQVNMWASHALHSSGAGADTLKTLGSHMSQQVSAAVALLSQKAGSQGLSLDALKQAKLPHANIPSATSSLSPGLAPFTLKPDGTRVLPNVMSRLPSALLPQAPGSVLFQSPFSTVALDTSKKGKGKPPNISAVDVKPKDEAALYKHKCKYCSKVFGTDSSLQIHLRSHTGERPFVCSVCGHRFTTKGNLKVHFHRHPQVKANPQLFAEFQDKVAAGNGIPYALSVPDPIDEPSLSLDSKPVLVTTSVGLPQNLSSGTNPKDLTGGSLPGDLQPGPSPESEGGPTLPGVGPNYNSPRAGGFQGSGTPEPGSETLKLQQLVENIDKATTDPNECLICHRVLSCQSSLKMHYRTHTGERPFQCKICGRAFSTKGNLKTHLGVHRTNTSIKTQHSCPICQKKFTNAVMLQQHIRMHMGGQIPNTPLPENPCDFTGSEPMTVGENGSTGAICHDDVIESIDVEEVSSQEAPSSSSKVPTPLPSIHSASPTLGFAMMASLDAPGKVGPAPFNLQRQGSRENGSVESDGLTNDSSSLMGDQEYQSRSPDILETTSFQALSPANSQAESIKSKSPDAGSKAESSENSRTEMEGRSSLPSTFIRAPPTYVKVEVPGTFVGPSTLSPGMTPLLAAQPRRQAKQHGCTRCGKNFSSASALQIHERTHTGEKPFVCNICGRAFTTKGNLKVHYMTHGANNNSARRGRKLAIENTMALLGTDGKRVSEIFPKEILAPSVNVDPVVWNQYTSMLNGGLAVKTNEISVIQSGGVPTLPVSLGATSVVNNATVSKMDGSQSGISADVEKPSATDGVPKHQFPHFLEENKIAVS
Notes: 8-mer, flanks averaged, mean of replicates
Strand | E-score
ACCGAACC | -0.254
AAAGGATC | -0.0158
ACGCGATA | 0.0738
CGCCCAGC | -0.273
CAGCTCAA | -0.0625
ACCGCGTG | -0.381

Block 3 — technique: DNA-protein interaction ELISA; molecule type: double-stranded DNA, one strand shown; matrix: in vitro, bacterial lysate; tested at: not given; notes: whole dsDNA probe, crude lysate protein; baseline: highest signal in screen; direction: higher = stronger binding
Target: Probable WRKY transcription factor 33, C-terminal DNA-binding domain (WRKY33, Arabidopsis thaliana, UniProt Q8S8P5, residues 346-449)
Target sequence (chain): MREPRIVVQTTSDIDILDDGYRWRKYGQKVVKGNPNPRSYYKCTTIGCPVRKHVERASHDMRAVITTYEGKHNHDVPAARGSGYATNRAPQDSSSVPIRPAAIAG
Strand | relative absorbance
AAAAAATTACTTCTCCCTTCCTTTGCAAAA | 26.7 % of maximum
AAAAAAATTCATGCTATTTAACCTTAAAAA | 39.8 % of maximum
AAAAAACTACGTATATTCAGGCCCTAAAAA | 31.5 % of maximum
AAAAAAGTCGTCACGCACGTGAATACAAAA | 59.6 % of maximum
AAAAAATCGTAAATGCCCATAGCCGTAAAA | 38.3 % of maximum

Other studies, line by line
Substance | target | assay | system | conditions | scale | quantity | value
PhoQ, residues 284 288 289 292 302 303 SCEHLI | PhoP, residues 12 14 15 18 19 LWHVM (Escherichia coli, UniProt P23836) | Sort-seq, item: YFP reporter | E. coli | PhoQ-PhoP variant library, together with: 10 µM Mg2+ | baseline: high Mg2+ state, higher = stronger signaling | fold induction | 13.3

Some of these lines once more (block 2):
Strand | E-score
AAAGGATC | -0.0158
ACGCGATA | 0.0738
